Results gathered from unrelated publications.
Protocols differ between the studies behind these lines. “And” joins repeats or separate records; there may be more than shown. ± gives the spread as reported.

With `COc1ccc(Nc2nc(Nc3ccc(OCCOCC[18F])cc3)ncc2Br)cc1` the tissue uptake was 2.35 ± 0.23 %ID/g (ICR mice, S180 tumour, lung; intravenous, 30 min, added: PF-562271 33 mg/kg oral 1 h before).
`O=C(NCC1OC2CCC=CCCC2O1)c1ccc(COCCOCCOCC[18F])cc1` (stereo not drawn) gave a tissue uptake of 2.1 ± 0.1 %ID/g (healthy female BALB/c nude mice, bone; intravenous, 7.4 MBq per mouse, 60 min).
`CCCC[C@H](NC(=O)CCCCCCCNC(=O)CN1CCN(CC(=O)O)CCN(CC(=O)O)CC1)C(=O)N[C@H]1CC(=O)NCCCC[C@@H](C(N)=O)NC(=O)[C@H](Cc2c[nH]c3ccccc23)NC(=O)[C@H](CCCNC(=N)N)NC(=O)[C@@H](Cc2ccccc2)NC(=O)[C@H](Cc2c[nH]cn2)NC1=O` [fluorine-18 labelled] gave a tissue uptake of 0.03 ± 0.01 %ID/g (C57 mice, B16/F10 melanoma, brain; intravenous, 1 h, added: NDP-MSH 10 µg).
`COc1ccc(Nc2nc(Nc3ccc(OCCOCCOCC[18F])cc3)ncc2Br)cc1` gave a tissue uptake of 2.07 ± 0.16 %ID/g (ICR mice, S180 tumour-bearing, kidney; intravenous, 370 kBq, 5 min).
`CC(C)C[C@H](NC(=O)[C@@H](CCCCNC(=O)[C@@H](Cc1ccccc1)NC(=O)CCCCCCCNC(=O)CN1CCN(CC(=O)O)CCN(CC(=O)O)CCN(CC(=O)O)CC1)NC(=O)[C@H](Cc1ccc(O)cc1)NC(=O)[C@H](CO)NC(=O)[C@H](Cc1c[nH]c2ccccc12)NC(=O)[C@H](Cc1c[nH]cn1)NC(=O)[C@@H]1CCC(=O)N1)C(=O)N[C@@H](CCCNC(=N)N)C(=O)N1CCC[C@H]1C(=O)NCC(N)=O` [indium-111 labelled] has a tissue uptake of 0.5 ± 0.07 %ID/g (biodistribution; male athymic nude mice, DU-145 prostate cancer xenograft, liver; intravenous, 0.037 MBq, 2 h post-injection).
`N#C[C@@H]1CCCN1C(=O)CNC(=O)c1ccnc2ccc(OCCCN3CCN(C(=O)CCc4ccc(O)c(CN5CCN6CC(=O)[O][Al-]([18F])([O]C(=O)C5)[O]c5ccc(CCC(=O)N7CCN(CCCOc8ccc9nccc(C(=O)NCC(=O)N%10CCC[C@H]%10C#N)c9c8)CC7)cc5C6)c4)CC3)cc12` (stereo partly drawn) gave a tissue uptake of 1.37 ± 0.35 %ID/g (BALB/c nude mice, U-87 MG xenograft, spleen; 1 h).
`CCCC[C@H](NC(=O)COCCOCCNC(=O)CN1CCN(CC(=O)O)CCN(CC(=O)O)CC1)C(=O)N[C@H]1CC(=O)NCCCC[C@@H](C(N)=O)NC(=O)[C@H](Cc2c[nH]c3ccccc23)NC(=O)[C@H](CCCNC(=N)N)NC(=O)[C@@H](Cc2ccccc2)NC(=O)[C@H](Cc2c[nH]cn2)NC1=O` [fluorine-18 labelled] gave a tissue uptake of 0.02 ± 0.05 %ID/g (C57 mice B16-F10 melanoma, spleen; intravenous, 0.37 MBq, 2 h).
The tissue uptake of `Cc1cc(C)n(CCN(CCN)CCCCCCNC(=O)[C@@H](N)Cc2c[nH]c3ccccc23)n1.[99Tc+].[C-]#[O+].[C-]#[O+].[C-]#[O+]` is reported as 0.38 ± 0.22 %ID/g (BALB/c nude mice A549 xenograft, blood; intravenous, 4 h).
`O=C([O-])CN1CCN(CC(=O)[O-])CCN(CC(=O)NC[C@H]2CC[C@H](C(=O)N[C@H](Cc3cnc4ccccc4c3)C(=O)NCCCC[C@H](NC(=O)N[C@@H](CCC(=O)O)C(=O)O)C(=O)O)CC2)CCN(CC(=O)[O-])CC1.[64Cu+2]` has a tissue uptake of 0.4 %ID/g (ex vivo gamma counting; 22Rv1 tumour-bearing mice, brain; intravenous, 0.74 MBq, 2 h post-injection).
With `CCCC[C@H](NC(=O)CNC(=O)CNC(=O)[C@H](CCCCNC(=O)[C@H](CC(N)=O)NC(=O)C(C)c1ccc(CC(C)C)cc1)NC(=O)CN1CCN(CC(=O)O)CCN(CC(=O)O)CCN(CC(=O)O)CC1)C(=O)N[C@H]1CC(=O)NCCCC[C@@H](C(N)=O)NC(=O)[C@H](Cc2c[nH]c3ccccc23)NC(=O)[C@H](CCCNC(=N)N)NC(=O)[C@@H](Cc2ccccc2)NC(=O)[C@H](Cc2c[nH]cn2)NC1=O` (stereo partly drawn) [lutetium-177 labelled] the tissue uptake was 0.51 ± 0.12 %ID/g (C57 mice, tumour-bearing, muscle; 2 h).
`N#C[C@@H]1CCCN1C(=O)CNC(=O)c1ccnc2ccc(OCCCN3CCN(C(=O)CCc4ccc5c(c4)CN4CCN(Cc6cc(CCC(=O)O)ccc6O)CC(=O)[O][Al-]([18F])([O]C(=O)C4)[O]5)CC3)cc12` (stereo partly drawn) gave a tissue uptake of 1.87 ± 0.33 %ID/g (BALB/c nude mice, U-87 MG xenograft, lung; 1 h).
For `COc1ccc2c(c1)C(C)(C)C(/C=C/C1=C(Oc3ccc(C(=O)NCCCCOc4cc(CN(Cc5ccccn5)Cc5ccccn5)cc(CN(Cc5ccccn5)Cc5ccccn5)c4)cc3)C(=C/C=C3/N(CCCCS(=O)(=O)[O-])c4ccc(OC)cc4C3(C)C)CCC1)=[N+]2CCCCS(=O)(=O)[O-].O=[N+]([O-])[O-].O=[N+]([O-])[O-].[99Tc+].[C-]#[O+].[C-]#[O+].[C-]#[O+].[Zn+2]`, the tissue uptake was 1.28 %ID/g and 1.13 %ID/g and 2.48 %ID/g and 1.84 %ID/g (BALB/c mice, S. aureus myositis, infected muscle; 12 h post-injection).
For `Cc1cc(C)n(CCN(CCN)CCCCCCNC(=O)[C@@H](N)Cc2c[nH]cn2)n1.[99Tc+].[C-]#[O+].[C-]#[O+].[C-]#[O+]`, the tissue uptake was 0.13 ± 0.01 %IA/g (BALB/c nude mice, A549 xenograft, brain; intravenous, 15 min).
`CCCC[C@H](NC(=O)CNC(=O)CNC(=O)[C@H](CCCCNC(=O)[C@H](CC(=O)O)NC(=O)C(C)c1ccc(CC(C)C)cc1)NC(=O)CN1CCN(CC(=O)O)CCN(CC(=O)O)CCN(CC(=O)O)CC1)C(=O)N[C@H]1CC(=O)NCCCC[C@@H](C(N)=O)NC(=O)[C@H](Cc2c[nH]c3ccccc23)NC(=O)[C@H](CCCNC(=N)N)NC(=O)[C@@H](Cc2ccccc2)NC(=O)[C@H](Cc2c[nH]cn2)NC1=O` (stereo partly drawn) [lutetium-177 labelled] has a tissue uptake of 0.28 ± 0.09 %ID/g (C57 mice, tumour-bearing, bone; intravenous, 0.037 MBq, 24 h).
With `O=C(NCC1OC2CCC=CCCC2O1)c1ccc([18F])nc1` (stereo not drawn) the tissue uptake was 0.8 ± 0.2 %ID/g (female BALB/c nude mice, LS174T tumour, tumor; intravenous, 60 min, added: unmodified CC49 24 h before).

Excerpt of the above:
`O=C(NCC1OC2CCC=CCCC2O1)c1ccc(COCCOCCOCC[18F])cc1` (stereo not drawn) gave a tissue uptake of 2.1 ± 0.1 %ID/g (healthy female BALB/c nude mice, bone; intravenous, 7.4 MBq per mouse, 60 min).
`CCCC[C@H](NC(=O)CCCCCCCNC(=O)CN1CCN(CC(=O)O)CCN(CC(=O)O)CC1)C(=O)N[C@H]1CC(=O)NCCCC[C@@H](C(N)=O)NC(=O)[C@H](Cc2c[nH]c3ccccc23)NC(=O)[C@H](CCCNC(=N)N)NC(=O)[C@@H](Cc2ccccc2)NC(=O)[C@H](Cc2c[nH]cn2)NC1=O` [fluorine-18 labelled] gave a tissue uptake of 0.03 ± 0.01 %ID/g (C57 mice, B16/F10 melanoma, brain; intravenous, 1 h, added: NDP-MSH 10 µg).
